# Experimental data pooled from the literature.
# A part holds a random share of what one study measured.
# UniProt Q96J92, sequence (whole entry, looked up): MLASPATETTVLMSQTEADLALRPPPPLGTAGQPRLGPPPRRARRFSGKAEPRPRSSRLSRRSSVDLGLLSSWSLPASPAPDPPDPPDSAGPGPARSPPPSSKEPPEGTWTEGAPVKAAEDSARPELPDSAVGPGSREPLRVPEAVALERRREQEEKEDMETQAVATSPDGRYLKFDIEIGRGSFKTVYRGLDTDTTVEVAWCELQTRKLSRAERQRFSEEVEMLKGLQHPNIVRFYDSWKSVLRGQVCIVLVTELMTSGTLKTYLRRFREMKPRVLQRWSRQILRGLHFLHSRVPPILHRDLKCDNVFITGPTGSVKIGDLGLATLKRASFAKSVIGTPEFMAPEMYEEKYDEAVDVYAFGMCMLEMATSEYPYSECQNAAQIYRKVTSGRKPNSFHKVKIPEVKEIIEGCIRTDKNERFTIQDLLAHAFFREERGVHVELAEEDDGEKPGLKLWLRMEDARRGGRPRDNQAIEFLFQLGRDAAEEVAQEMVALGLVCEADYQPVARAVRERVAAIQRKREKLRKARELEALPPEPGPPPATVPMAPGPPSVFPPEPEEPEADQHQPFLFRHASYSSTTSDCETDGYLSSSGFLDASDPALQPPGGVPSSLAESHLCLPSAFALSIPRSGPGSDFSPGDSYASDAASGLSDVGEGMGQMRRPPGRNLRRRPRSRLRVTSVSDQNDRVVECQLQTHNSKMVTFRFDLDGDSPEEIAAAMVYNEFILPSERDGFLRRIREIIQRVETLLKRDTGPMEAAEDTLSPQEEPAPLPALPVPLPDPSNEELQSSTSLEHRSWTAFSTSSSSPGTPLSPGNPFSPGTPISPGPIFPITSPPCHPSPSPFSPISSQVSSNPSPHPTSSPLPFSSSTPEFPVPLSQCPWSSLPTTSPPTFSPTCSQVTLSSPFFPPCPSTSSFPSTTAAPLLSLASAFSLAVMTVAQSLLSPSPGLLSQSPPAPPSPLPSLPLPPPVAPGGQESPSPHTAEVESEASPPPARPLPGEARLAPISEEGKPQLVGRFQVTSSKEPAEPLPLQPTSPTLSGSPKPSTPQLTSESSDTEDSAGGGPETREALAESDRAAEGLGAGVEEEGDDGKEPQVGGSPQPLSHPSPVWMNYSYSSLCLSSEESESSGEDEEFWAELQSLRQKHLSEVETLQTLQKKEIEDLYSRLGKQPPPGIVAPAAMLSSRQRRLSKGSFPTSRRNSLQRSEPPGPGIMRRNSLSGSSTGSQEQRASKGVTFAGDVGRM

# Sample 1 — method: aptamer microarray, sandwich; molecule type: DNA with 2'F-ANA; medium: in vitro; concentration: 200 nM; together with: Cy3 exosite-II aptamer, 400 nM; reading: higher = stronger binding; sequence: GGTTGGTGTGGTTGG
# Target: Prothrombin, mature alpha-thrombin (F2, Homo sapiens, UniProt P00734)
# Setting: whole 15-mer aptamer, many near background
Modification,mean fluorescence intensity [a.u.]
2'F-ANA at 1 3 4 6 10 11 12 15,72.4
2'F-ANA at 1 2 3 6 7 8 9 10 12 13 15,75.4
2'F-ANA at 2 3 4 8 11 12 14 15,297
2'F-ANA at 1 3 5 8 9 11 12 13 14,59.2
2'F-ANA at 2 3 4 5 6 7 10 11 12 15,56.1
2'F-ANA at 1 2 4 5 6 8 9,76.2
2'F-ANA at 5 9 10 12 13,47.3
2'F-ANA at 1 2 4 5 6 10 11 12 14,75.2

# Sample 2 — method: protein-binding microarray; molecule type: hairpin DNA; medium: in vitro; concentration: not given; reference: not given; reading: higher = stronger binding
# Target: Runt-related transcription factor 1, full length (RUNX1, Homo sapiens, UniProt Q01196-8, residues 1-480)
# Setting: whole hairpin DNA, median over replicate spots
Sequence,median fluorescence [a.u.]
GAGGCCTGTTGCGGTCGGCCTCCTGGCCGACCGCAACAGGCCTCACACTC,4760
GAGGCCCAACCGCGACAGCCTCCTGGCTGTCGCGGTTGGGCCTCACACTC (5mC at 31),5650
GAGGCCTGTTGTGGTTGGCCTCCTGGCCAACCACAACAGGCCTCACACTC (5mC at 37),3260
GAGGCCTGTCGCCGTTGGCCTCCTGGCCAACGGCGACAGGCCTCACACTC (5mC at 13),1730
GAGGCCTGTTGTGGTTGGCCTCCTGGCCAACCACAACAGGCCTCACACTC (5mC at 31),1670
GAGGCCTGTTGCCGTTGGCCTCCTGGCCAACGGCAACAGGCCTCACACTC (5mC at 31),1750
GAGGCCTGTCGCGTTTGGCCTCCTGGCCAAACGCGACAGGCCTCACACTC,1640
GAGGCCGGTCGCGGTTGGCCTCCTGGCCAACCGCGACCGGCCTCACACTC (5mC at 38),2900

# Further values, each from its own experiment
Substance,target or system,assay,test system,setting,quantity,result
COc1ccc2c(c1)O[C@@H](c1ccc(OC)c(OC)c1)C[C@H]2NC(=O)C1(c2ccc3c(c2)OC(F)(F)O3)CC1,"Serine/threonine-protein kinase WNK4 (WNK4, Homo sapiens, UniProt Q96J92)","cell-free assay, competition with immobilised ligand",,1 µM,remaining binding,85%
"NDUFB5 (Homo sapiens, UniProt O43674)","NDUFA11 (Homo sapiens, UniProt Q86Y39)",cross-linking MS,cell fractions,together with: DSSO,cross-linked residues,K158 to K138

# Repeated from above (further values, each from its own experiment):
Substance,target or system,assay,test system,setting,quantity,result
COc1ccc2c(c1)O[C@@H](c1ccc(OC)c(OC)c1)C[C@H]2NC(=O)C1(c2ccc3c(c2)OC(F)(F)O3)CC1,"Serine/threonine-protein kinase WNK4 (WNK4, Homo sapiens, UniProt Q96J92)","cell-free assay, competition with immobilised ligand",,1 µM,remaining binding,85%
